{"data": "Measured values gathered from unrelated publications", "B1": "N-biotin-Ahx, C-amide; Biotin = O=C1N[C@H]2[C@H](CS[C@H]2CCCCC(=O)*)N1; Ahx = NCCCCCC(=O)O; chain {Biotin-Ahx}-KKGFYKKKQCRPSKGRKRGFCWAVDKYG-NH2 (cysteine pairing not given here)", "note": "Lines come from different studies, so protocols differ. ± marks the error that the study gave. *: point of attachment."}
{"Substance": "SIIVFEKL", "cell line": "OT-I CD8+ T cells", "test system": "peptide", "setting": "primed 5 d, OVA257 100 ng/mL restimulation, together with: 20 ng/mL TGF-beta1 from day 2", "quantity": "IFN-gamma single producers", "result": "0.07%"}
{"Substance": "c1ccc2c(-c3cnn4cc(-c5ccc(N6CCNCC6)cc5)cnc34)ccnc2c1", "cell line": "mouse PASMCs expressing ALK2 Q207D", "assay": "immunoblot", "setting": "100 nM", "quantity": "Smad1/5/8 phosphorylation", "result": "inhibited"}
{"Substance": "O=C1NC(=O)C(c2ccccc2)(c2ccccc2)N1", "cell line": "ES-D3 mouse embryonic stem cells", "assay": "cardiomyocyte differentiation", "quantity": "ID50", "result": "49 µM"}
{"Substance": "COc1ccc(-c2ccc(-c3ccc(C(=N)N)nc3)s2)cc1", "cell line": "HepG2", "assay": "real-time PCR, measured: topoisomerase II", "setting": "0.1 µM, 8 h, unit not given", "scale": "relative to: untreated", "quantity": "mRNA level", "result": "1.23 ± 0.05"}
{"Substance": "CC1(C)C(/C=C/C=C/C=C/C=C2\\N(CCCCS(=O)(=O)O)c3ccc4ccccc4c3C2(C)C)=[N+](CCCCS(=O)(=O)[O-])c2ccc3ccccc3c21", "cell line": "U87MG-luc", "assay": "confocal microscopy", "setting": "20 µM, 4 h", "quantity": "fluorescent area per cell", "result": "2.06 ± 0.46%"}
{"Substance": "CCCCCCCCCCCCCCCCCCOc1ccccc1CC(=O)OCC[N+]1(C)CCCC1", "cell line": "leukaemia cells", "setting": "range over four lines", "quantity": "GI50", "result": "< 3 µM"}
{"Substance": "COc1cc(-c2ccc(-c3ccc(C(=N)N)nc3)s2)cc(OC)c1OC", "cell line": "HepG2", "assay": "real-time PCR, measured: topoisomerase II", "setting": "0.1 µM, 8 h, unit not given", "scale": "relative to: untreated", "quantity": "mRNA level", "result": "0.27 ± 0.02"}
{"Substance": "COc1cc(Cc2nnc3sc(-c4cc([N+](=O)[O-])ccc4[N+](=O)[O-])nn23)c(S(=O)(=O)N(C)C)cc1OC", "cell line": "MRC5 normal lung fibroblasts", "assay": "MTT", "setting": "48 h", "quantity": "TGI", "result": "27 ± 0.76 µM"}
{"Substance": "TCVCGS", "cell line": "rabbit smooth muscle cells", "test system": "peptide", "setting": "2 µg coated per well, 30 to 60 min", "scale": "relative to: thrombospondin-coated wells", "quantity": "adherent cells", "result": "8%"}
{"Substance": "Cc1cc(-c2ccccc2)c2c(n1)C1(CCCCC1)NC2=O", "cell line": "human erythrocytes", "assay": "hypotonicity-induced hemolysis", "setting": "200 µg/mL, 1 h", "quantity": "inhibition", "result": "74.6%"}
{"Substance": "SIYNFEKL", "cell line": "OT-I CD8+ T cells", "test system": "peptide", "setting": "primed 5 d, OVA257 100 ng/mL restimulation, together with: 20 ng/mL TGF-beta1 from day 2", "quantity": "IFN-gamma single producers", "result": "0.12%"}
{"Substance": "B1", "cell line": "CHO pgsD-677, heparan sulfate-deficient", "setting": "30 min, 37 °C, 240 ng/mL peptide-HRP complex", "quantity": "uptake of HRP complex", "result": "inhibited"}
{"Substance": "CC(C)[C@H](CO)Nc1nc(Nc2cccc(Cl)c2)c2ncn(C(C)C)c2n1", "cell line": "HFF", "quantity": "growth arrest dose", "result": "> 10 µM"}
{"Substance": "AIAEGDSHVLKEGAY / MEIFDVQGHVFGGKIFRVVDLGSHNVA (oligomer)", "cell line": "human T cells", "assay": "flow cytometry, ThT label", "test system": "peptide", "setting": "10 µM, 1 h", "quantity": "T cell association", "result": "55 to 60%"}
{"Substance": "CCc1cc(OC)c2nccc(N3CCc4c(cc(Cn5ccnc5)cc4-c4cn(C)nc4C(F)(F)F)C3=O)c2c1", "cell line": "MV4-11", "assay": "cell growth or viability, ATP luminescence", "setting": "5 days", "quantity": "GI50", "result": "< 0.01 µM"}
{"Substance": "CC(C)[C@H](N)C(N)=O", "cell line": "human eosinophils", "setting": "10 to 6 M, 20 min pretreatment, 37 °C, cells washed before stimulus, together with: valyl-tetrapeptide", "scale": "relative to: control", "quantity": "eosinophil chemotaxis", "result": "96.2%"}
{"Substance": "CCn1c2ccccc2c2cc(C3CC(c4cc5cccc(OC)c5oc4=O)=NN3c3cccc(Cl)c3)ccc21 (centres unmarked)", "cell line": "NCI-H520", "assay": "propidium iodide staining", "setting": "IC50, 24 h", "quantity": "cells in G0/G1 phase", "result": "61.2%"}
{"Substance": "O=C1/C(=C/c2ccc(O)c(Br)c2)CN(Cc2ccccc2)C/C1=C\\c1ccc(O)c(Br)c1", "cell line": "LNCaP cells", "assay": "reporter gene, luciferase", "setting": "up to 8 to 10 µM, 2 days", "scale": "relative to: CMV-Renilla control", "quantity": "PSA reporter activity", "result": "decreased"}
{"Substance": "COC(=O)[C@H]1[C@H]2C[C@@H]3c4[nH]c5cc(OC)ccc5c4CCN3C[C@H]2C[C@@H](OC(=O)c2cc(OC)c(OC)c(OC)c2)[C@@H]1OC", "cell line": "mouse pheochromocytoma MPC cells", "setting": "10 µM, 30 min preincubation, together with: 0.024 MBq/mL [18F]-dopamine, 120 min retention phase", "scale": "relative to: control", "quantity": "[18F]-dopamine retention", "result": "21.4%"}
{"Substance": "CC(=O)[C@]1(O)Cc2c(O)c3c(c(O)c2[C@@H](O[C@H]2C[C@H](N)[C@H](O)[C@H](C)O2)C1)C(=O)c1ccccc1C3=O", "cell line": "hiPSCs", "assay": "LC-MS/MS proteomics", "setting": "concentration not given, 24 h, fold change below 0.67", "quantity": "number of downregulated proteins", "result": 568}
{"Substance": "CCCCCCCCCCCCCCCCCCOc1ccccc1CC(=O)OCC[N+]1(C)CCCCC1", "cell line": "leukaemia cells", "setting": "range over four lines", "quantity": "GI50", "result": "< 3 µM"}
{"Substance": "O=C(/C=C/c1ccc(O)c(O)c1)c1ccc(O)cc1O", "cell line": "MRC-5", "assay": "H2O2-induced intracellular ROS", "setting": "concentration not given, 24 h pretreatment, together with: H2O2 5 mM for 15 min", "scale": "relative to: untreated H2O2-exposed cells", "quantity": "fold decrease in ROS", "result": 1.64}
{"Substance": "CCCC[C@H]1NC(=O)[C@H]([C@@H](C)O)NC(=O)[C@@H](C)NC(=O)[C@H](CCCNC(=N)N)NC(=O)[C@H](CCCNC(=N)N)NC(=O)[C@H](CCCNC(=N)N)NC(=O)[C@@H](Cc2ccc3ccccc3c2)NC(=O)[C@H](CCCNC(=N)N)NC(=O)[C@H](Cc2ccc(F)cc2)NC(=O)[C@H](Cc2c[nH]c3ccccc23)NC(=O)[C@H](CCC(N)=O)NC1=O", "cell line": "H1299", "assay": "immunoblot, measured: phospho-ERK1/2", "setting": "concentration not given", "quantity": "time to comparable ERK dephosphorylation", "result": "20 min"}
{"Substance": "CCn1c(=O)c(-c2cc(NC(=O)Nc3ccccc3)c(F)cc2Br)cc2cnc(NC)cc21", "cell line": "Mo7e (KIT wild-type amplified)", "assay": "cell growth", "quantity": "GI50", "result": "0.261 µM"}
{"Substance": "CNC(=O)c1cccc2cc(Oc3ccnc4cc(OCC5(N)CC5)c(OC)cc34)ccc12", "cell line": "SNU-16", "assay": "inhibitor, Western blot", "setting": "2 h, serum starved", "quantity": "lowest effective concentration", "result": "≥ 100 nM"}
{"Substance": "COc1ccc2c(Oc3ccc4c(C(=O)Nc5ccccc5N)cccc4c3)ccnc2c1", "cell line": "BEND3", "assay": "cell growth or viability, MTS", "setting": "72 h", "quantity": "GI50", "result": "0.0355 µM"}
{"Substance": "O=C1NC2(CCCCC2)c2[nH]c(=S)nc(-c3ccccc3)c21", "cell line": "human erythrocytes", "assay": "hypotonicity-induced hemolysis", "setting": "200 µg/mL, 1 h", "quantity": "inhibition", "result": "74.4%"}
{"Substance": "CC(C)(N)C(=O)O", "cell line": "Ehrlich ascites cells, mouse", "assay": "Na+ binding to carrier", "setting": "equilibrium model K1", "quantity": "Kd", "result": "45000 µM"}
{"Substance": "O=C1CCC(=O)C2(CCCCC2)N1", "cell line": "human erythrocytes", "assay": "hypotonicity-induced hemolysis", "setting": "100 µg/mL, 1 h", "quantity": "inhibition", "result": "58.2%"}
{"Substance": "CSTSCR", "cell line": "rabbit smooth muscle cells", "test system": "peptide", "setting": "2 µg coated per well, 30 to 60 min", "scale": "relative to: thrombospondin-coated wells", "quantity": "adherent cells", "result": "82%"}
{"Substance": "COc1ccc(-c2ccc(-c3ccc(C(=N)N)nc3)s2)cc1Cl", "cell line": "HepG2", "assay": "real-time PCR, measured: caspase-3", "setting": "0.1 µM, 8 h, unit not given", "scale": "relative to: untreated", "quantity": "mRNA level", "result": "1.85 ± 0.11"}
{"Substance": "O=C1NC2(CCCCC2)c2nc3c(c(-c4ccccc4)c21)CCCC3", "cell line": "human erythrocytes", "assay": "hypotonicity-induced hemolysis", "setting": "400 µg/mL, 1 h", "quantity": "inhibition", "result": "108%"}
{"Substance": "C[C@H](NC(=O)Cc1cc(F)cc(F)c1)C(=O)N[C@H](C(=O)OC(C)(C)C)c1ccccc1", "cell line": "HPB-ALL", "assay": "qPCR, measured: HES1", "setting": "30 µM, 16 h, 37 °C", "scale": "relative to: untreated", "quantity": "mRNA level", "result": "decreased"}
{"Substance": "N.N.O=C([O-])C1(C(=O)[O-])CCC1.[Pt+2]", "cell line": "A2780 (platinum-sensitive)", "setting": "24.6 µM, 72 h", "quantity": "viability decrease", "result": "25%"}
{"Substance": "COc1ccc2c(c1)c(CC(=O)O)c(C)n2C(=O)c1ccc(Cl)cc1", "cell line": "human erythrocytes", "assay": "hypotonicity-induced hemolysis", "setting": "400 µg/mL, 1 h", "quantity": "inhibition", "result": "93.5%"}
{"Substance": "CNCCCN1c2ccccc2CCc2ccccc21", "cell line": "mouse pheochromocytoma MPC cells", "setting": "1 µM, 30 min preincubation, together with: 0.029 MBq/mL [18F]-DOPA 120 min", "scale": "relative to: control", "quantity": "[18F]-DOPA retention", "result": "no effect"}
{"Substance": "N=C(N)SCCc1ccc(OCc2ccc([N+](=O)[O-])cc2)cc1", "cell line": "tsA201", "assay": "forward-mode exchanger current, inhibitor, inside-out patch clamp", "scale": "relative to: IC50 NCX1.1 over IC50 NCX1.3", "quantity": "selectivity ratio", "result": "~16 fold"}
{"Substance": "NC1=NC(=S)NC12CCCCC2", "cell line": "human erythrocytes", "assay": "hypotonicity-induced hemolysis", "setting": "1000 µg/mL, 1 h", "quantity": "inhibition", "result": "97.8%"}
{"Substance": "C=C1C(=O)O[C@H]2[C@H]1CCC(C)=C1CC[C@@](C)(O)[C@@H]12", "cell line": "M9-ENL1", "assay": "annexin V, 7-AAD", "setting": "20 µM, 24 h", "quantity": "viability", "result": "50%"}
{"Substance": "COc1cc(O)c2c(c1)O[C@H](c1ccc(O)cc1)CC2=O", "cell line": "BV-2", "assay": "NO release, inhibitor, Griess", "setting": "24 h, together with: 10 µg/mL LPS + 1 µM nicotine", "quantity": "Hill slope", "result": "-2.2 ± 0.3"}
{"Substance": "ANKHYF", "cell line": "rabbit smooth muscle cells", "test system": "peptide", "setting": "2 µg coated per well, 30 to 60 min", "scale": "relative to: thrombospondin-coated wells", "quantity": "adherent cells", "result": "17%"}
{"note": "Excerpt of the above:"}
{"Substance": "CCCCCCCCCCCCCCCCCCOc1ccccc1CC(=O)OCC[N+]1(C)CCCCC1", "cell line": "leukaemia cells", "setting": "range over four lines", "quantity": "GI50", "result": "< 3 µM"}
{"Substance": "O=C(/C=C/c1ccc(O)c(O)c1)c1ccc(O)cc1O", "cell line": "MRC-5", "assay": "H2O2-induced intracellular ROS", "setting": "concentration not given, 24 h pretreatment, together with: H2O2 5 mM for 15 min", "scale": "relative to: untreated H2O2-exposed cells", "quantity": "fold decrease in ROS", "result": 1.64}
{"Substance": "CCCC[C@H]1NC(=O)[C@H]([C@@H](C)O)NC(=O)[C@@H](C)NC(=O)[C@H](CCCNC(=N)N)NC(=O)[C@H](CCCNC(=N)N)NC(=O)[C@H](CCCNC(=N)N)NC(=O)[C@@H](Cc2ccc3ccccc3c2)NC(=O)[C@H](CCCNC(=N)N)NC(=O)[C@H](Cc2ccc(F)cc2)NC(=O)[C@H](Cc2c[nH]c3ccccc23)NC(=O)[C@H](CCC(N)=O)NC1=O", "cell line": "H1299", "assay": "immunoblot, measured: phospho-ERK1/2", "setting": "concentration not given", "quantity": "time to comparable ERK dephosphorylation", "result": "20 min"}
